Experimental data from different studies.
± marks the error that the study gave.

SMILES | assay | system | setting | how to read | quantity | value
CN1[C@@H]2C[C@@H](OC(=O)[C@H](CO)c3ccccc3)C[C@H]1[C@@H]1O[C@@H]12 | – | DBA/2J mice | 10 mg/kg, 10 min before challenge, rectal temperature, with: 3-IC 0.2 mg/kg | reference: saline | hypothermia | no effect
CC1=C(C(=O)Cl)C(c2ccccc2Br)NC(=S)N1 (centres unmarked) | carotid artery cannulation | male Wistar rats, anaesthetised | 0.3 mL, 3 h | – | mean arterial pressure | 27.6 ± 0.74 mm Hg
CC[C@H](C)[C@H](NC(=O)CNC(=O)[C@H](Cc1c[nH]c2ccccc12)NC(=O)CNC(C)=O)C(=O)N[C@@H](CCCCN)C(N)=O | DSC | SOPC/cholesterol 6/4 bilayers | 10 mol%, pH 7.40 | – | transition enthalpy | 0.7 kcal/mol
CC1=C(C(=O)Nc2ccc(C)cc2)C(c2ccccc2C#N)NC(=S)N1 (centres unmarked) | carotid artery cannulation | male Wistar rats, anaesthetised | 0.3 mL, 3 h | – | mean arterial pressure | 22.8 ± 0.95 mm Hg
CSCC[C@H](NC(=O)[C@@H](N)CCSC)C(=O)N[C@@H](CC(C)C)C(=O)N[C@@H](CCCNC(=N)N)C(=O)N[C@@H](CC(=O)O)C(=O)N[C@@H](CCCNC(=N)N)C(=O)N[C@@H](Cc1c[nH]c2ccccc12)C(=O)N[C@@H](CO)C(=O)N[C@@H](CC(C)C)C(=O)O | – | PBMC, human, HSV-1 seropositive, HLA-A*0201+ | 10 µg/mL, 72 h | – | IFN-γ+ CD8+ T cells | ≤ 3.6%
CC(C)[C@H](O)C(=O)N[C@H]1Cc2ccc3c(c2)[C@]2(C4=C(c5nc(CO)co5)N=C(O4)[C@H](C(C)(C)C)NC1=O)c1cc(F)ccc1N[C@@H]2O3 | overall survival | mice, HT-29 xenograft | – | reference: vehicle | minimum effective dose | 4.5 mg/m²
Cc1ncc(COCc2cn(Cc3cc(F)cc(F)c3)nn2)c(CO)c1O | Zn2+ chelation | – | 100 µM, 30 min, 37 °C, with: Zn2+ 100 µM | – | absorbance change | 0%
c1cc2ccc3cccc4ccc(c1)c2c34 | inducer | female rat, liver | oral, 10 mg, 24 h, sesame oil vehicle | – | menadione reductase activity | 22.9 enzyme units
CC(=O)N[C@@H](CC(C)C)C(=O)NCC(=O)N[C@@H](Cc1ccc(O)cc1)C(=O)NCC(=O)N[C@@H](CCCCN)C(N)=O | DSC | SOPC/cholesterol 7/3 bilayers | 5 mol%, pH 7.40 | – | transition enthalpy | 1.5 kcal/mol
NC[C@@H]1O[C@H](O[C@H]2[C@@H](O)[C@H](O[C@@H]3[C@@H](O)[C@H](N)C[C@H](N)[C@H]3O[C@H]3O[C@H](CO)[C@@H](O)[C@H](O)[C@H]3N)O[C@@H]2CO)[C@H](N)[C@@H](O)[C@@H]1O | luciferase synthesis, inhibitor, coupled transcription-translation | M. smegmatis 70S ribosomes, Leishmania/Trypanosoma hybrid | 60 min, 37 °C | – | IC50 | 180 nM
Oc1cccc2ccc3ccccc3c12 | – | zebrafish embryo | – | – | EC50 | 500 to 5500 nM
CC(C)C[C@H](NC(=O)[C@H](C)NC(=O)[C@H](CCCNC(=N)N)NC(=O)[C@@H](NC(=O)CNC(=O)[C@@H]1CCCN1C(=O)[C@H](Cc1c[nH]c2ccccc12)NC(=O)[C@H](Cc1ccc(O)cc1)NC(=O)[C@@H](N)CC(C)C)C(C)C)C(=O)N[C@@H](CC(C)C)C(=O)NCC(=O)O | IFN-γ release, ELISPOT | splenocytes, BALB/c mouse immunised | – | – | EC50 | 1000 nM
CC(NC(C)(C)C)C(=O)c1cccc(Cl)c1 (centres unmarked) | nicotine-induced hypothermia, antagonist | mouse | with: nicotine 2.5 mg/kg sc | – | ED50 | 9.2 mg/kg
COc1ccc(OC)c(CN(C(=O)C[18F])c2ccccc2Oc2ccccc2)c1 | – | human, brain | – | reference: cpd over 11C-PBR28 | in vivo affinity ratio | 1.37

For quick reference, copied from above:
SMILES | assay | system | setting | how to read | quantity | value
CC(C)C[C@H](NC(=O)[C@H](C)NC(=O)[C@H](CCCNC(=N)N)NC(=O)[C@@H](NC(=O)CNC(=O)[C@@H]1CCCN1C(=O)[C@H](Cc1c[nH]c2ccccc12)NC(=O)[C@H](Cc1ccc(O)cc1)NC(=O)[C@@H](N)CC(C)C)C(C)C)C(=O)N[C@@H](CC(C)C)C(=O)NCC(=O)O | IFN-γ release, ELISPOT | splenocytes, BALB/c mouse immunised | – | – | EC50 | 1000 nM
CC(NC(C)(C)C)C(=O)c1cccc(Cl)c1 (centres unmarked) | nicotine-induced hypothermia, antagonist | mouse | with: nicotine 2.5 mg/kg sc | – | ED50 | 9.2 mg/kg
